Published values collected from several papers.
A part holds a random share of what one study measured.

Set 1 — method: RNA Bind-n-Seq; molecule type: RNA; medium: in vitro; concentration: 200 nM; setting: whole 134-nt RNA, ends assumed; with: 150 mM KCl; relative to: input library; reading: higher = stronger binding
Target: Ras GTPase-activating protein-binding protein 1, full length (G3BP1, Homo sapiens, UniProt Q13283)
Sequence of UniProt Q13283 (whole entry, looked up): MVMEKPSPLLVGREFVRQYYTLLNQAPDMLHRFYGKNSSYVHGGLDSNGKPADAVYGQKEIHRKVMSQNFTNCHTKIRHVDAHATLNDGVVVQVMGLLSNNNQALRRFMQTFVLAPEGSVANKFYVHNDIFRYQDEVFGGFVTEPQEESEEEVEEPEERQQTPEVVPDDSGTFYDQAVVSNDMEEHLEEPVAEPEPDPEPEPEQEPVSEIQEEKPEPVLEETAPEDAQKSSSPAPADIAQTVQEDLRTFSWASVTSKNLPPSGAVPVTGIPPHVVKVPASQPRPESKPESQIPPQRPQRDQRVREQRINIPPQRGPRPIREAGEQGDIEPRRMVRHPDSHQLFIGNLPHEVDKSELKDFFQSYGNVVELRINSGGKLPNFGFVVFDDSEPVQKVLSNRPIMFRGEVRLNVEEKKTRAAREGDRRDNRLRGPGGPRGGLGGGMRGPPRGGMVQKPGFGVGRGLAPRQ
All sequences stand within: GGGAGUUCUACAGUCCGACGAUC … UGGAAUUCUCGGGUGUCAAGG
| Sequence | log2 enrichment |
| --- | --- |
| GUCCUGUGCUACACAUCGUAUGUACCGAAUCAAACCCCCCCAAAUUUAAAUUUUUAAAAAAGUAUUAUGUUACGCCGUUCGGAUCUGCAC | 0.278 |
| AGUCCUGUGCUACACAUCGUAUGUACCGAAUCGGGGUUUUUUUGGGGAGGGGUGGGGAAAGUAUUAUGUUACGCCGUUCGGAUCUGCACU | 0.545 |
| AAGUCCUGUGCUACACAUCGUAUGUACCGAAUCGGGGAGGGGUUUGGGGUUUGGGGAAAGUAUUAUGUUACGCCGUUCGGAUCUGCACUU | 0.941 |
| UAACUUUAGAGGAGGGUCUGAUGGAUAUGGCAGUGGACGUGGAUUUGGGGAUGGCUAUAAUGGGUAUGGAGGAGGACCUGGAGGUGGCAA | 0.397 |
| UAUGAGGAUGAGUUGGUGCCCCUUUUUGAGAAGGCCGGACCCAUUUGGGAUCUACGUCUUAUGAUGGAUCCACUGUCCGGUCAGAAUAGA | 0.3 |
| UAACUUUAGAGGAGGAUCUGAUGGAUAUGGCAGUGGACGUGGAUUUGGGGAUGGCUAUAAUGGGUAUGGAGGAGGACCUGGAGGUGGCAA | 0.229 |
| GCAGGAAGUAAAAACAAAUGGAAAUGCUUCGGAUAGUGGCAGGGGUGGGGGUUGCUAAGGAAAGGGUGGGAUGGCAGUGGGUAAAGAGUU | 0.661 |

Set 2 — method: universal PBM; molecule type: double-stranded DNA, one strand shown; medium: in vitro; concentration: not given; reading: higher = stronger binding
Target: Sal-like protein 4, full length isoform B (SALL4, Homo sapiens, UniProt Q9UJQ4-2, residues 1-616)
Setting: 8-mer, flanks averaged, mean of replicates
Residues (chain): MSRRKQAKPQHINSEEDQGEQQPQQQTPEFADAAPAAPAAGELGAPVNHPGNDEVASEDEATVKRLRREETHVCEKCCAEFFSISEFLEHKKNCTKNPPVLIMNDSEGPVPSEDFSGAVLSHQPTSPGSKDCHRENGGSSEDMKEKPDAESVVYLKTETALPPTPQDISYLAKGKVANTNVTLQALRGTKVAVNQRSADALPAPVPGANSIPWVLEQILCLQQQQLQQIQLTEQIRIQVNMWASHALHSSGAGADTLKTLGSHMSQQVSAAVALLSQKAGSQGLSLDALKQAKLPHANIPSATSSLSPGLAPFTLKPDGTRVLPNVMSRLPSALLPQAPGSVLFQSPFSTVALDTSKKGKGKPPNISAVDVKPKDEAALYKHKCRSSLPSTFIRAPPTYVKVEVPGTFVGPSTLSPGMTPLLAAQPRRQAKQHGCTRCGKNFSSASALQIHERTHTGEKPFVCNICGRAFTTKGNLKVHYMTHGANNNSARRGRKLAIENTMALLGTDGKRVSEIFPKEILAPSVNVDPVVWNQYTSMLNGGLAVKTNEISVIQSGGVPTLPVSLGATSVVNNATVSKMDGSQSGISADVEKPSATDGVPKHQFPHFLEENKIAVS
| Sequence | E-score |
| --- | --- |
| GCTGTGAC | -0.118 |
| AATACGTC | 0.119 |
| TTGACAAA | 0.313 |
| GATCGCCA | -0.123 |
| GGTTCGCA | -0.163 |
| CCGCGAGG | -0.281 |
| AAAACAAC | 0.0606 |
| ACGCGCGT | 0.125 |
| GTGCGGGA | -0.165 |
| CTAAAAGC | -0.224 |
| GAGCGACC | -0.2 |

Set 3 — method: RNA Bind-n-Seq; molecule type: RNA; medium: in vitro; concentration: 365 nM; relative to: no-protein control; reading: higher = stronger binding
Target: RNA binding protein fox-1 homolog 2, RRM domain, GST-SBP tag (RBFOX2, Homo sapiens, UniProt O43251-10, residues 100-194)
Setting: natural RNA segment, single round, ends assumed
All sequences stand within: GGGAGUUCUACAGUCCGACGAUC … UGGAAUUCUCGGGUGCCAA
| Sequence | RBNS enrichment (R) |
| --- | --- |
| AAAAAGAUCAGGCUUUCUGACUUCCAUCCCCAAAACACAUUUACCAGCAUACUCCAAACUGUUUCUGAUGUGUUCCAUGAGAAAAGGAUUGUUUGCUCAAAAAGCUUGGA | 0.387 |
| AGAACCUAACCAAAAGGUUUCCCGUUCAGAAGUUUCCUUAGCUCUCGUCCCAAGCUAUUCGCUCACAUUAACAAGUCAAAGUGCCUGAAGCAUAACUCAUUUACCUGUAU | 0.53 |
| UUUUGGUGCUGUUGGCUACUUUAUCAAAAAAACAAAAAACAAAAAAACAAAAAACCCUUCAAUAGCAUCCUUGAGGAAAAGGAACAGCAGUUGACUGUAAGUGCUUCCCU | 1.09 |
| ACUGAUGAACUAUAUAGACUGGACUCUUAACCUCUUAGUGCCUCAGUUUUUCCUUCGGGGUAUACUAUUUUAGAUACACCUACUUCACAGGAGUACUGGAGGGAUUUGCA | 3.79 |
| CUUAGCAGACGGCAGUCAAUCCACAUUCAAUAAAAAGUACAUAAUGCCCAUUUUUAUAUGCACGUUUUUAAACUUCCAAGUUCUGAAAAUUGUUUACUGGUUAUCUCUAU | 0.994 |
| UAUGCAUCAACUCAUUGGGCUCUUGGCUGCUCACAAGGCAAAUUUGACUUGGAAAGACUUUCAUCUCCUUGGAACCAAGACUUCCUGAGUCCCCCUCACCCUGGCCCUGU | 0.948 |
| UGACGAGAGAGCUUUAGAAUUUAAUAAAAUGUCAAAAAUACAAUUUGAUACCCUUAAAAAUUAUUCAUAGAUCUGGCUGCUCUGUACUACUGGAUGGGUGGAAUAGGGAA | 0.777 |
| CCACCAUAAAACUGGAAGCUGCUUCCCCUGUAGUCCCCAUUUCAGUACCAGUUCUGCCAGCCACAGUGAGCCCCUAUUAUUACUUUCAGAUUGUCUGUGACACUCAAGCC | 0.889 |

Single results of other studies
| Molecule | target | test | system | conditions | scale | quantity | value |
| --- | --- | --- | --- | --- | --- | --- | --- |
| PhoQ, residues 284 288 289 292 302 303 NLSRDF | PhoP, residues 12 14 15 18 19 NMSFL (Escherichia coli, UniProt P23836) | Sort-seq, item: YFP reporter | E. coli | PhoQ-PhoP variant library, with: 10 µM Mg2+ | relative to: high Mg2+ state, higher = stronger signaling | fold induction | 13.4 |

Repeated from above (set 1):
| Sequence | log2 enrichment |
| --- | --- |
| UAACUUUAGAGGAGGGUCUGAUGGAUAUGGCAGUGGACGUGGAUUUGGGGAUGGCUAUAAUGGGUAUGGAGGAGGACCUGGAGGUGGCAA | 0.397 |
| UAUGAGGAUGAGUUGGUGCCCCUUUUUGAGAAGGCCGGACCCAUUUGGGAUCUACGUCUUAUGAUGGAUCCACUGUCCGGUCAGAAUAGA | 0.3 |
| UAACUUUAGAGGAGGAUCUGAUGGAUAUGGCAGUGGACGUGGAUUUGGGGAUGGCUAUAAUGGGUAUGGAGGAGGACCUGGAGGUGGCAA | 0.229 |
| GCAGGAAGUAAAAACAAAUGGAAAUGCUUCGGAUAGUGGCAGGGGUGGGGGUUGCUAAGGAAAGGGUGGGAUGGCAGUGGGUAAAGAGUU | 0.661 |
